Measurements gathered from unrelated publications.
Every numbered part comes from another study and shows a few of its results, in no order.

Block 1
Target: Phosphate system positive regulatory protein PHO4, full length, GST-tagged (PHO4, Saccharomyces cerevisiae, UniProt P07270, residues 1-312)
Technique: competition protein-binding microarray
Form: double-stranded DNA, one strand shown
Medium: in vitro
Tested at: 2 µM
Notes: whole 60-bp probe, lowest competitor level
With: Cbf1 competitor, 0.05 µM
Direction: higher = stronger binding
Constant ends, left off below: … GTCTTGATTCGCTTGACGCTGCTG
Residues (chain): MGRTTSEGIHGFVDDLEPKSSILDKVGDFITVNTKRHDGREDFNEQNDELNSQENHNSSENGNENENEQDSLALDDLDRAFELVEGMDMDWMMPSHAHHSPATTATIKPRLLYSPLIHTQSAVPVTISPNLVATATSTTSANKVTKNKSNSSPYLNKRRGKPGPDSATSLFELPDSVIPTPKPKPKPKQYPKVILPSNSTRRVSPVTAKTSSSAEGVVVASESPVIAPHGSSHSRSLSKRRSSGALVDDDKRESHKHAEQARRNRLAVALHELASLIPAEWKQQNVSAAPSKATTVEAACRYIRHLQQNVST
| Sequence | fluorescence intensity [a.u.] |
| --- | --- |
| CAGCGTTATCGCCGTCACGGCGATCTTGAAGTGTAG | 4190 |
| GAATATGAATGTTCCCTTAATCAGCCGGGATAATCT | 2880 |
| TACAGCTGCCATTTGACCGTGCAATACAGCAAATTA | 5070 |
| CTGGGCCTCCAGCGCCACGTGCCGCCGCTGGCACTG | 17700 |
| CTTTCCCGATCTTTTCACGTGACGTTAGCACATTTG | 14300 |
| AAAGCGGTAATTTGAGCGGTGGGTGCAGATATCTAT | 3890 |
| CTTCTGTAAATTTGTTCGGTGGGTGGACGCGCCCCG | 3970 |
| TGCCTCTGCGCTTTGCACGTTCAAAAGAAAAGCATA | 9850 |
| CGATTGGAAACCCGTCACGTGGAAGTGAGTCTATTA | 13700 |
| TCGAACAACCTTCCCAACGTGAAGAAGCTAAGAAAG | 7150 |
| ATGGTTAGAAAAAGAAACGTGCAATCGCCCGTCTGG | 13100 |
| CGATGTTCTTAATTACACGTGAATTATCAAAAACCA | 13200 |
| AAAGCGGTAATTTGGGGGGTGGGTGCAGATATCTAT | 6280 |
| GTTTTGAATTCCCATCACAAAGGTTGACGAGCCGGC | 2500 |
| CGTCCTAGTGATTGCTTCGTGGGTGCCATGAGGAAG | 7910 |
| TGTGTTCTAGGCTTGAACGTGCCAGCAGCATATCGA | 11900 |
| AACGGAGACAGAAAGCACGTTGCCGCTTTGAGAACC | 13500 |

Block 2
Target: Fragile X messenger ribonucleoprotein 1, C-terminal low-complexity region (Fmr1, Mus musculus, UniProt P35922)
Technique: RNA Bind-n-Seq
Form: RNA
Medium: in vitro
Tested at: 200 nM
Notes: whole 134-nt RNA, ends assumed
With: 150 mM KCl
Relative to: input library
Direction: higher = stronger binding
Constant ends, left off below: GGGAGUUCUACAGUCCGACGAUC … UGGAAUUCUCGGGUGUCAAGG
| Sequence | log2 enrichment |
| --- | --- |
| AGUCCUGUGCUACACAUCGUAUGUACCGAAUCGGGGAAAGGGGAAAGGGGUUUGGGGAAAGUAUUAUGUUACGCCGUUCGGAUCUGCACU | 0.452 |
| GUCCUGUGCUACACAUCGUAUGUACCGAAUCGGGUGGGAAAAAAAGGGAAAAAAAGGGAAAGUAUUAUGUUACGCCGUUCGGAUCUGCAC | 0.0959 |
| GCAGGAAGUAAAAACAAAUGGAAAUGCUUCGGAUAGUGGCAGGGGUGGGGGUUGCUACGGAAAGGGUGGGAUGGGAGUGGGUAAAGAGUU | 0.0238 |
| AAGUCCUGUGCUACACAUCGUAUGUACCGAAUCGGAGGUUUUUUUGGAAAAAAAGGAAAGUAUUAUGUUACGCCGUUCGGAUCUGCACUU | -1.03 |
| GCAGGAAGUAAAAACAAAUGGAAAUGCUUCGGUUAGUGGCAGGGGUGGGGGUUGCUAAGGAAAGGGUGGGAUGGGAGUGGGUAAAGAGUU | 0.0946 |
| AGUCCUGUGCUACACAUCGUAUGUACCGAAUCGGCCCCCGGCCCCCGGCCCCCGGGGAAAGUAUUAUGUUACGCCGUUCGGAUCUGCACU | -0.143 |
| UAACUUUAGAGGAGGAUGUGAUGGAUAUGGCAGUGGACGUGGAUUUGGGGAUGGCUAUAAUGGGUAUGGAGGAGGACCUGGAGGUGGCAA | 0.231 |
| ACCAUGCAGGUGGGCAUCUUUGGGAAGUGGGGCAAGGGGGGGAUAGGGCGGGGGGUAACACUUUGGGAACAGGUGGUCCCAGGUCGUUUC | 0.781 |
| UCCUGUGCUACACAUCGUAUGUACCGAAUCGGGGAGGGGUUUUUGGGGAAAAAAAGGGGAAAGUAUUAUGUUACGCCGUUCGGAUCUGCA | 0.656 |
| GCAGGAAGUAAAAACAAAUGGAAAUGCUUCGGAUAGUGGCAGGGGUGGGGGUUGCUAAGGAAAGGGUGGGAUGGGAGUGGGUUAAGAGUU | 0.304 |
| UUUUCUCACGAUGCACCUCCCCCUGGCACUAAGAAAAAGCACUUAUCCAUUGAGCAGCUGAAUGCUCGUCGCAGGAAAGUAUGGCUCAGC | -0.528 |
| AGUCCUGUGCUACACAUCGUAUGUACCGAAUCGGGGUGGGGAAAGGGGUUUUUGGGGAAAGUAUUAUGUUACGCCGUUCGGAUCUGCACU | 0.921 |
| UAACUUUAGAGGAGGAUCUGAUGGAUAUGGCAGUGGACUUGGAUUUGGGGAUGGCUAUAAUGGGUAUGGAGGAGGACCUGGAGGUGGCAA | 0.331 |
| CACAGACAACACGCACCCACACAGGCACAGAGGGAAGGGGUUGGGAUGGGGACAGGGUGCACAGCAGGGCGGGGUAGGACCCCAGCCCCU | 1.2 |

Block 3
Target: RNA binding protein fox-1 homolog 2, RRM domain, GST-SBP tag (RBFOX2, Homo sapiens, UniProt O43251-10, residues 100-194)
Technique: RNA Bind-n-Seq
Form: RNA
Medium: in vitro
Tested at: 365 nM
Notes: natural RNA segment, single round, ends assumed
Relative to: no-protein control
Direction: higher = stronger binding
Constant ends, left off below: GGGAGUUCUACAGUCCGACGAUC … UGGAAUUCUCGGGUGCCAA
Residues (chain): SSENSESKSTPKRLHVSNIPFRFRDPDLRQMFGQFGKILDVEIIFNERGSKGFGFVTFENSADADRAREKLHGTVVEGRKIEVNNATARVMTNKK
| Sequence | RBNS enrichment (R) |
| --- | --- |
| AAAAUUAAAGAACAAGAUGUGGUUUUUUGUUUAAGACGUUUUUAGUUUAUUUGUUGUUAAGUUAAACUGGAGAAAGUUUGUCAUCCUCAUUUUCAAACUGAAAACUAAUC | 0.994 |
| UCGUACUACAGAAAUUAAGAUGUUGUCUUGCGAUCCUUAAUAAAUGAAUGAUUUCCCUUUAAUACGGCUGAUGUAUUUUGUAUCCUGUUAUAUUGAGUGUUGGACUGAAG | 2.98 |
| CCCCCUCCAUCACCCCCAAGACCCCUCUUCUCCCUCUUCUUAGCCUGCUGUGUGAGAGAGGAGCCAAGAGGCAGGUGCUUGCCGACGGCCGCAUCCUCCUUCCCAGGUGU | 0.839 |
| GCUGGCCAUAUUCCUCCUGUCCCCAUGCUGUGGCUCAUGCCAACCUAGCAAUAAGGAGCUCUGGAGAGCCUGCACCUGCCUCCCGCUCGCCUAUAUCUGCUGCCCAGAGG | 1.02 |
| CCAUGGCAUAUGACAAAGACCAAUGAGGGACCAGGAAAAAAAGUGAUGUCCCCUUUCCCUGCCACCUCCAGCCUCUGCCAGCAAUGAGCUGUCCCCCUCCCACCCUACAC | 1.23 |
| UUAUCAAAUACACAAAGAUUUUUUUGCAUAUGUUUCCUUCGUUUAAAACCAGUUUCAUAAUUGGUUGUAUAUGUAGACUUGGAGUUUUAUCUUUUUACUUGUUGCCAUGG | 0.711 |
| UUGUGUUAAAUUGUUCUGUUACACACUUUUGUCUAACCUGUUUUGUUUUUUAUCAUAUAUGCAUUAAAAGUAUUAUGUUUAUCAACAUUUGCUGCUAUUGUGUUAACAUU | 0.642 |
| CCCAUCUCCUCAACCACCAGGGUCUGAGUUCUAGCAGGGUCCUGGGGGUAUCCCACUGCUAUACUGUUCUACUGCUUCCCUCAGUAUCUGAAUGUCUCAAUUUAAAACUU | 0.711 |
| UUACUGGGAAGUGGACACUAGGAAUUGCAGCCACUGGGCAGUUGGGGUGGCUUCCUGGGAGAUGAGCCGCGACCAGGUCCUGGGAAGGACUAUGGACUCUUGUUGUGUGG | 1.76 |
| GACCUUUUUCACAGCUGAUGCUAUCAUAAUUUUGAAGGAUUUUUAAGUAAAACAGCAGUGUACAUAUGUGUGUACAGGACACCAAGACUCGCAGGCAGGCCUGAGAGCCC | 0.309 |
| ACUUUGGAAGCUUAACUUCCCACCUAUCUGGGCCUUACUGGUUUACUUGUGGUUUUCCAUAGUUUUCCAUAAUUACAUUCAUCUUCUUUCUUUGACUAGAAUCACAACCA | 0.309 |
| GUCUGGCCAGAUGGGUUGCUGGCUGCACUGAGGGUGAUUCUUCUCAGAAGAUGGGCUGCCUGUGGUCAGGACAGGGCAUACCAGUCUGGACUCCACCUUCCCAGACACCU | 0.4 |

Block 4
Target: Histone acetyltransferase KAT6A, both winged helices, GST fusion (KAT6A, Homo sapiens, UniProt Q92794, residues 1-181)
Technique: protein binding microarray
Form: double-stranded DNA, one strand shown
Medium: in vitro
Tested at: not given
Notes: 8-mer, flanks averaged, mean of 2 arrays, mostly near background
Relative to: not given
Direction: higher = stronger binding
Construct (chain): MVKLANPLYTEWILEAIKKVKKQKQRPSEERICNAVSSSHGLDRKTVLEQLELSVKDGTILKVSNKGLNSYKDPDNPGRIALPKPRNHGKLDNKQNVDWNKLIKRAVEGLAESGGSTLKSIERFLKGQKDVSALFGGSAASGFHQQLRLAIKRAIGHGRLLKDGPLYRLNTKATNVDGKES
| Sequence | E-score |
| --- | --- |
| TGATGACA | -0.108 |
| CCCAAGGC | -0.023 |
| AACACCTC | -0.12 |
| ACAAGGCG | 0.117 |
| AGCTCTGG | -0.154 |
| TTCGCCAA | 0.0184 |
| GCGATCGA | 0.0795 |
| CCTTGGGC | 0.00122 |
| CACTCACA | -0.0511 |
| ATATTGAG | -0.0649 |
| CGTGCTCC | -0.0462 |
| AGAAATTG | -0.14 |
| CGCATACG | 0.274 |
| ACCCCTAT | -0.112 |
| ACTATAGC | 0.0906 |
| CTTGTGTA | -0.0497 |
| AGTGATCG | -0.02 |
| GTCCCGAA | -0.0536 |
| ATTGTGCG | 0.226 |
| GATGGATA | -0.0583 |
| CTAGTATC | -0.214 |
| CTCATAAC | -0.17 |
| GGGAATCA | 0.0393 |
| GGGCTATA | -0.0533 |

Some of these lines once more (block 4):
| Sequence | E-score |
| --- | --- |
| ATATTGAG | -0.0649 |
| CGTGCTCC | -0.0462 |
| AGAAATTG | -0.14 |
| CGCATACG | 0.274 |
| ACCCCTAT | -0.112 |
| ACTATAGC | 0.0906 |
| CTTGTGTA | -0.0497 |
| AGTGATCG | -0.02 |
| GTCCCGAA | -0.0536 |
| ATTGTGCG | 0.226 |
